Assay results gathered from unrelated publications.
Each numbered part is a random draw from the data of one study; scales do not carry over between parts.

Sample 1
Target: RING finger protein unkempt homolog, zinc fingers 1-6, GST-SBP tag (UNK, Homo sapiens, UniProt Q9C0B0, residues 30-357)
Chain of UniProt Q9C0B0 (30-357, looked up): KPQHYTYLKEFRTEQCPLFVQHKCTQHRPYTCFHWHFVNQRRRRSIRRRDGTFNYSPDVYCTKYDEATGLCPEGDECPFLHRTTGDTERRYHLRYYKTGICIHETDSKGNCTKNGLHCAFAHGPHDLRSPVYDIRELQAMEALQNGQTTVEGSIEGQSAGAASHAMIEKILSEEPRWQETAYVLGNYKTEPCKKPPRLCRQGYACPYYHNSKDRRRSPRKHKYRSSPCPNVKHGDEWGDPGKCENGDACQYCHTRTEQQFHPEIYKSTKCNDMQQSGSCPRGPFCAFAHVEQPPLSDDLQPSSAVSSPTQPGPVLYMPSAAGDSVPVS
Technique: RNA Bind-n-Seq
Form: RNA
Medium: in vitro
Concentration: not given
Notes: RNA with constant flanks, human-mouse chimeric sites, ends assumed
Baseline: input RNA pool
Reading: higher = stronger binding
Sequence | bound/input enrichment [ratio]
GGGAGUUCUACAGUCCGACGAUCCAACCUCAGAGCCCAGACUUCCUGGAUAUUACCAACCCUAAAGCGGUAUUAGAAAAUGCAUUGAGAAACUUCGCCUGUCUGACGACUGGAGAUGUGAUUGCUAUCAACUACAAUGAGAAGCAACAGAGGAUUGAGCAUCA | 0.327
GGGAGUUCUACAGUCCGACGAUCAUAGAUGAAAUUGAUGUGGACCAGGAAGGAAUUGCUGAAAUGAUGCUGGAUGAAAAUGCUAUAGCUCAGGUCCCACGCCCUGGCACAUCUUUGAAGCUCCCUGGCACUAACCAAACAGGACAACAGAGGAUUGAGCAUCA | 0.269
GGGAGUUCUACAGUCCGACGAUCAAAGAACUACUGAGGCAAGGCAGCAAAUUUAGGAGAGACAUUUCAACACUAUUAAUAGAGUUAGGAUUCCAAAUUAAAAAAAAAACUAAGACAUUAUACAUCAACAAAGCCAAUGUGUGGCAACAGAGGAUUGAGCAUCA | 12.1
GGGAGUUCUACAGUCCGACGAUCAGUUCCAAACCACCAUCAGAAAUGAAGAUGAGAUUACCCAGACGAGCCAAAACAGCUGCGCUACAGAAAAAGUAAACUAACCUUGCAGAGUUCCUUAAUGAAGAUACAAGUUAAGAGAGCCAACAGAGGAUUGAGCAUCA | 0.253
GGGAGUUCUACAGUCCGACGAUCUUAAUCCCCUUUACUGCUCCCCCACUUCUCAUGGUAAUAACAAAGUCUUAUAUCCCCAUAUUAGCUUUCACUCAGAUGGCUUAUGGAGCCGGUUUCCUAUCUUUCUUGGGAGGGAUCAGACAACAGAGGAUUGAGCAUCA | 0.264
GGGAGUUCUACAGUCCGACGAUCGCUCUUGGGAAUGUAAUCAGCGCCUUGGGGGACAAGAGCAAGAGGGCCACCCAUGUCCCUUACAGAGACUCUAAGCUGACAAGACUCUUGCAGGAUUCCCUCGGGGGUAACAGCCAAACCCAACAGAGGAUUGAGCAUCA | 0.137
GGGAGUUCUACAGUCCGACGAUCUUCUAGUAUGAUGGUGAUAUUGGCAAUUAUUAUUAUGGACAGGGUCAUCCCAUGAAGCCUCAUAGAAUCCGGAUGACUCAUAACUUGCUGCUAAAUUAUGGUUUAUACCGAAAAAUGGAACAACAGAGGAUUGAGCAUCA | 0.411
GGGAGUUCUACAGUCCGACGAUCGUACUGCAACAGCAGGGAAAACUGCAGGAAGCUCUGAUGCAUUAUAAAGAAGCCAUACGAAUCAGUCCUACCUUUGCUGAUGCCUACUCUAAUAUGGGAAACACUCUAAAGGAGAUGCAGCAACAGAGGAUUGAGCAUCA | 0.205

Sample 2
Target: Prothrombin, mature alpha-thrombin (F2, Homo sapiens, UniProt P00734)
Technique: aptamer microarray, sandwich
Form: DNA with 2'F-ANA
Medium: in vitro
Concentration: 200 nM
Notes: whole 15-mer aptamer, many near background
With: Cy3 exosite-II aptamer, 400 nM
Reading: higher = stronger binding
Sequence: GGTTGGTGTGGTTGG
Modification | mean fluorescence intensity
2'F-ANA at 2 4 6 7 12 | 583 a.u.
2'F-ANA at 1 2 6 7 8 9 14 15 | 59.1 a.u.
2'F-ANA at 1 2 3 4 5 7 8 10 14 15 | 44.9 a.u.
2'F-ANA at 1 2 6 11 14 15 | 57.1 a.u.
2'F-ANA at 2 3 6 7 8 10 15 | 344 a.u.
2'F-ANA at 3 5 8 9 10 11 13 15 | 56.4 a.u.
2'F-ANA at 1 3 5 7 11 12 14 15 | 50.8 a.u.
2'F-ANA at 1 2 4 7 13 14 15 | 54.4 a.u.
2'F-ANA at 1 10 11 12 14 | 47.2 a.u.
2'F-ANA at 2 6 11 14 | 113 a.u.
2'F-ANA at 4 6 10 12 13 15 | 103 a.u.
2'F-ANA at 1 5 6 8 9 10 11 | 45.7 a.u.
2'F-ANA at 1 4 5 6 8 9 10 14 | 48.1 a.u.
2'F-ANA at 2 3 5 6 7 10 11 15 | 53.1 a.u.
2'F-ANA at 3 4 6 9 12 14 15 | 296 a.u.
2'F-ANA at 1 2 3 4 5 6 7 8 9 10 11 12 13 14 15 | 63.3 a.u.
2'F-ANA at 4 5 6 8 9 12 14 | 47.7 a.u.
2'F-ANA at 2 3 4 5 7 10 11 12 13 15 | 61.8 a.u.
2'F-ANA at 3 4 6 9 11 12 14 | 250 a.u.
2'F-ANA at 2 4 7 9 12 14 15 | 130 a.u.
2'F-ANA at 4 5 6 7 10 11 14 | 47.4 a.u.
2'F-ANA at 1 4 6 12 14 | 52.5 a.u.
2'F-ANA at 2 4 5 6 11 12 15 | 94.4 a.u.
2'F-ANA at 1 2 3 4 6 9 10 11 12 | 65.5 a.u.
2'F-ANA at 2 3 5 7 9 12 | 238 a.u.

Sample 3
Target: RNA binding protein fox-1 homolog 2, RRM domain, GST-SBP tag (RBFOX2, Homo sapiens, UniProt O43251-10, residues 100-194)
Technique: RNA Bind-n-Seq
Form: RNA
Medium: in vitro
Concentration: 365 nM
Notes: natural RNA segment, single round, ends assumed
Baseline: no-protein control
Reading: higher = stronger binding
Residues (chain): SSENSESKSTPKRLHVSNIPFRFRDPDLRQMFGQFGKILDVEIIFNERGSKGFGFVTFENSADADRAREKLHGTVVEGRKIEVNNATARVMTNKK
Sequence | RBNS enrichment (R)
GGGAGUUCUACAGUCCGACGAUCCAAGAACAGAGCAACAGCAACGGAACGAUGCUUAGAAGCAAAGGAAAGGUCACUGAUGAGUCCGCAAGAGGUCUCUUUCCCACUUUUGACUUUCCUGUUGAAGAGAUUACUGGAAUUCUCGGGUGCCAA | 0.424
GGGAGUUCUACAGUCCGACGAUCAAUGUAAAUCACUAUAAUUACAAAUUGGUGUUAAAUCCUUUGGGUUAUCCACUGCCUUAAAAUUAUACCUAUUUCAUGUUUAAAAAGAUAUCAAUCAGAAUUGGAGUUUUUGGAAUUCUCGGGUGCCAA | 0.319
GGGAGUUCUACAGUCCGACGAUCUACUCAGUGUUCUAAUUUUUAAAAAAUUUUAUCUGCAUAUUUGCAUCAAAUAUUUAUGUGUAAAAUGUAUGUUUUACCUCCUUAAAAUGCCUAAAAGUUAGUUAAUAGUUUGGAAUUCUCGGGUGCCAA | 1.03
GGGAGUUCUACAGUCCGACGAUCUUGGAGGUCACAAGCAGCUGGCCAGGGUAAUGUCCCUUGGUCCAUGGGGCUGUGGCCCGUGCUGUAGUCUAUGGGCUCCUCCGUUCAAGCUGCAGCCCUGCUGGUCCCUUUGGAAUUCUCGGGUGCCAA | 0.272
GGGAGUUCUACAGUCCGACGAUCAAUCAUGACAUGCACGGACACGUACAUAUUUAACUGAAACAAGUUUUACCAAACAGUAUUUACUCGUGAUGUGCGUAGUGCAUUCUGAUAUUUUUGAGCCAUUCUAUUGUUGGAAUUCUCGGGUGCCAA | 0.311
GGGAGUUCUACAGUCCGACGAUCUUGCACUGGGGCUGGCUGGGUUGGAAAGUGGGCUGGACUUCAGCUGCCUUUCUACCCCCAAUGGCAGCUGCCCCCUUAGCACUCACUGUGUUGGGGAGAGGGUGACGAUUUGGAAUUCUCGGGUGCCAA | 0.316
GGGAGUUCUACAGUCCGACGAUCAUCACUUCUCUAAGUAAGGUUGAAAUAUCCUUAUUGUAGCUACUGUUUUUAAUGUAAAGGUUAAACUUGAAAAGAAAUUCUUAAUCACGGUGCCAAAAUUCAUUUUCUAAUGGAAUUCUCGGGUGCCAA | 0.664
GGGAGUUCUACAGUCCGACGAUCAAAUAGCAGUUUUCCUAACUUGAUUAGCUUGAGCUGACAGACUGUUAGAAUACAGUUCUCUGGCCACAGCUGAUGAGGGCUUUCUGUACUGCACACAGAUUGUGUACUGCUGGAAUUCUCGGGUGCCAA | 0.304

Sample 4
Target: Histone acetyltransferase KAT6A, winged helix 2, GST fusion (KAT6A, Homo sapiens, UniProt Q92794, residues 85-181)
Technique: protein binding microarray
Form: double-stranded DNA, one strand shown
Medium: in vitro
Concentration: not given
Notes: 8-mer, flanks averaged, mean of 2 arrays, mostly near background
Baseline: not given
Reading: higher = stronger binding
Target sequence (chain): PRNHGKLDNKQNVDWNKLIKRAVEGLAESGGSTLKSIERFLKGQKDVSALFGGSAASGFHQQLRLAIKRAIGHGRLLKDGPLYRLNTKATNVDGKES
Sequence | E-score
AAGCCACT | -0.058
ATAGATTA | 0.0459
ACGCTTAT | -0.154
AGAATGTG | -0.142
CTGGAACA | 0.00148
ACCTCACT | -0.00714
CTTCACGC | 0.0906
CTCTCGTA | -0.0948
GATTATGA | -0.0529
CCTAGAGA | -0.125
GCATTCAA | 0.136
GGGTAACC | -0.00449
AAGCAATC | -0.0314
AAGACATG | -0.146
ACAGTCGG | 0.062
AGTAGCAT | 0.173
CACTTCGA | 0.113
GTAGCATA | 0.0177
CAGAAGGG | 0.0833
TACTCCGA | 0.00621
AAAGAAGC | 0.0484
ACGTTTTG | -0.203

A few entries again (sample 2):
Modification | mean fluorescence intensity
2'F-ANA at 4 6 10 12 13 15 | 103 a.u.
2'F-ANA at 1 5 6 8 9 10 11 | 45.7 a.u.
2'F-ANA at 1 4 5 6 8 9 10 14 | 48.1 a.u.
2'F-ANA at 2 3 5 6 7 10 11 15 | 53.1 a.u.
2'F-ANA at 3 4 6 9 12 14 15 | 296 a.u.
2'F-ANA at 1 2 3 4 5 6 7 8 9 10 11 12 13 14 15 | 63.3 a.u.
2'F-ANA at 4 5 6 8 9 12 14 | 47.7 a.u.
2'F-ANA at 2 3 4 5 7 10 11 12 13 15 | 61.8 a.u.
2'F-ANA at 3 4 6 9 11 12 14 | 250 a.u.
